Measured values from different studies.
Compare with care: the assays were run in different laboratories.
Route: intravenous

Structure (SMILES) | system | setting | clearance
C/C(N)=N/C(=N\S(=O)(=O)c1ccc(C(F)(F)F)cc1)N1C[C@H](c2ccccc2)C(c2ccc(Cl)cc2)=N1 | male beagle dog, plasma | 2 mg/kg | 3.8 mL/min/kg
CCC1(CC)CC(=O)N(C2c3cc(C(=O)NC4c5ccccc5CC4O)ccc3OC2(C)COC)C(=N)N1 (centres unmarked) | male beagle dog, plasma |  | 8.9 mL/min/kg
N#Cc1ccnc(N2C(=O)CC[C@H]2C(=O)N(c2cncc(F)c2)[C@H](C(=O)NC2CC(F)(F)C2)c2ccccc2Cl)c1 | beagle dog, plasma | 1 mg/kg | 0.333 mL/min/kg
Cc1[nH]nc2c1N=C(c1ccccc1Cl)c1cnc(N3CCOCC3)cc1N2 | male beagle dog, plasma | 1 mg/kg | 3.67 mL/min/kg
N#Cc1ccnc(N2C(=O)CC[C@H]2C(=O)N(c2cc(F)cc(F)c2)[C@H](C(=O)NC2CC(F)(F)C2)c2ccccc2Cl)c1 (stereo in doubt) | beagle dog, plasma | 1 mg/kg | 2 mL/min/kg
COc1cc2ncnc(Oc3ccc(Nc4nccc5[nH]cc(-c6ccc(F)cc6)c(=O)c45)cc3F)c2cc1OC | male beagle dog, plasma | 2 mg/kg | 1.13 mL/min/kg
CCC1(CC)CC(=O)N(C2CCOc3ccc(C(=O)NC4CC(C)(C)Oc5ccccc54)cc32)C(=N)N1 (centres unmarked) | male beagle dog, plasma |  | 6.5 mL/min/kg
OCC1OC(n2cnc3c(NCc4ccc(Br)s4)ncnc32)C(O)C1O (centres unmarked) | beagle dog, blood | 0.5 mg/kg | 257 mL/min

A few entries again:
Structure (SMILES) | system | setting | clearance
OCC1OC(n2cnc3c(NCc4ccc(Br)s4)ncnc32)C(O)C1O (centres unmarked) | beagle dog, blood | 0.5 mg/kg | 257 mL/min
